{"data": "Results pooled from the literature", "note": "Parts stem from different laboratories: compare values within a part only. “And” joins repeats or separate records; there may be more than shown.", "chain of UniProt O00444 (whole entry, looked up)": "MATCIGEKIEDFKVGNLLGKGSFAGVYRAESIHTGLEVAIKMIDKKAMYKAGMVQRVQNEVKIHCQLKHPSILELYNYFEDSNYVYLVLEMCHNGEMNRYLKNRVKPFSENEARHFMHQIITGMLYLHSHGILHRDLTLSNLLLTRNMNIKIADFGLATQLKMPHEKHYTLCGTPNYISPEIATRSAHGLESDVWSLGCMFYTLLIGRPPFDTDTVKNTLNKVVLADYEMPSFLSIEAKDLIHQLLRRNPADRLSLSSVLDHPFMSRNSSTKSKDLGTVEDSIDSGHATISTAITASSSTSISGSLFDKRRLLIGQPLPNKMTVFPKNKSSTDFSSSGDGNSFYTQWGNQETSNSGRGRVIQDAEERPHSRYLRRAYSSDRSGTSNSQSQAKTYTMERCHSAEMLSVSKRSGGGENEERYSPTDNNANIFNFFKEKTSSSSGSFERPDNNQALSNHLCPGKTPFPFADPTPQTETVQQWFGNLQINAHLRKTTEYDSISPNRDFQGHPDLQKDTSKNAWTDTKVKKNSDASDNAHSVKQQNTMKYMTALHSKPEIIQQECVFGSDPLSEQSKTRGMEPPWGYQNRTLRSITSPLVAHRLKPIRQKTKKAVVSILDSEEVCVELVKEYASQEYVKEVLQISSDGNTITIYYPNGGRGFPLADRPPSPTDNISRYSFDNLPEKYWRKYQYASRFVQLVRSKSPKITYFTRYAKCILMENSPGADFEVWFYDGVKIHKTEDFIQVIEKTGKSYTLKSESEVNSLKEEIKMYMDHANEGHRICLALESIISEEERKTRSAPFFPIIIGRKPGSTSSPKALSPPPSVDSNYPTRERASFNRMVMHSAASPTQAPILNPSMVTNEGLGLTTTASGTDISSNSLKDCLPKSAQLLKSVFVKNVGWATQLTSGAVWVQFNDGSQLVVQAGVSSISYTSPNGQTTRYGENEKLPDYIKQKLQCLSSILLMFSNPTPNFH", "chain of UniProt Q9NWZ3 (whole entry, looked up)": "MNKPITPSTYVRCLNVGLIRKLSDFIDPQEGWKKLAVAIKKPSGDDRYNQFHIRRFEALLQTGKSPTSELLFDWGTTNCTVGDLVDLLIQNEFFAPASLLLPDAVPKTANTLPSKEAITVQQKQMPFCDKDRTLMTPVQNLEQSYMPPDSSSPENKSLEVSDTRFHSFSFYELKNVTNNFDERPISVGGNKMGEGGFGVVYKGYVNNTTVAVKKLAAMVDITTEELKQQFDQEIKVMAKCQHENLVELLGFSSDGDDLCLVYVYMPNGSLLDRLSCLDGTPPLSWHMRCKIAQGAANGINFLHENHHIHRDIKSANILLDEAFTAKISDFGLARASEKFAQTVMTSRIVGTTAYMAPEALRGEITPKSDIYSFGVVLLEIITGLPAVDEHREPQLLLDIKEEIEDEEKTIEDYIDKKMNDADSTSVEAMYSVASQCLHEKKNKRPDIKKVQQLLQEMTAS", "chain of UniProt Q16832 (whole entry, looked up)": "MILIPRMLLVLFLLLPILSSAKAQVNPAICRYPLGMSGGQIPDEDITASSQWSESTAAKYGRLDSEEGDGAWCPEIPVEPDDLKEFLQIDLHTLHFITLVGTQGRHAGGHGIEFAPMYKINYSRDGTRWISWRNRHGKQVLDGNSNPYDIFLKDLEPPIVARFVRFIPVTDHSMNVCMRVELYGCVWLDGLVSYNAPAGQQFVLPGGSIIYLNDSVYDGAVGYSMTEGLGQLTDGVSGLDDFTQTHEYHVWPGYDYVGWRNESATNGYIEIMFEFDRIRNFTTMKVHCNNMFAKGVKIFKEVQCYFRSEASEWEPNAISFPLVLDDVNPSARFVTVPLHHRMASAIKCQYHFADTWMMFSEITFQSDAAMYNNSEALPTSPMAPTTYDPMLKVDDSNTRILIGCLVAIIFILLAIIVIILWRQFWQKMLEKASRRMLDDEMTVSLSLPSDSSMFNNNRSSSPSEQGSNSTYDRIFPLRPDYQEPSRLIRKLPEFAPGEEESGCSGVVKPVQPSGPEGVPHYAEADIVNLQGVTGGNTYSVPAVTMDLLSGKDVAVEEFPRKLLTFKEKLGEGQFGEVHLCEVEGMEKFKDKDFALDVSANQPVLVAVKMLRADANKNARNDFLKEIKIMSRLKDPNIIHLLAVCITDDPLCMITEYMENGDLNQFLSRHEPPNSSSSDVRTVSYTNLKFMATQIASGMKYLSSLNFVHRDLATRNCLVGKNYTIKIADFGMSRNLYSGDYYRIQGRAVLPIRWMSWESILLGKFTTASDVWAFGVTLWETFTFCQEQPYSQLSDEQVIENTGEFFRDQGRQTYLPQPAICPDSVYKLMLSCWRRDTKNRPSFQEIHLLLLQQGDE"}
{"data": "Set 1", "target": "DNA polymerase theta, ATPase domain (POLQ, Homo sapiens, UniProt O75417)", "observed": "enzyme activity", "action": "inhibitor", "concentration": "77 µM", "reference": "untreated", "chain of UniProt O75417 (whole entry, unmodified, looked up)": "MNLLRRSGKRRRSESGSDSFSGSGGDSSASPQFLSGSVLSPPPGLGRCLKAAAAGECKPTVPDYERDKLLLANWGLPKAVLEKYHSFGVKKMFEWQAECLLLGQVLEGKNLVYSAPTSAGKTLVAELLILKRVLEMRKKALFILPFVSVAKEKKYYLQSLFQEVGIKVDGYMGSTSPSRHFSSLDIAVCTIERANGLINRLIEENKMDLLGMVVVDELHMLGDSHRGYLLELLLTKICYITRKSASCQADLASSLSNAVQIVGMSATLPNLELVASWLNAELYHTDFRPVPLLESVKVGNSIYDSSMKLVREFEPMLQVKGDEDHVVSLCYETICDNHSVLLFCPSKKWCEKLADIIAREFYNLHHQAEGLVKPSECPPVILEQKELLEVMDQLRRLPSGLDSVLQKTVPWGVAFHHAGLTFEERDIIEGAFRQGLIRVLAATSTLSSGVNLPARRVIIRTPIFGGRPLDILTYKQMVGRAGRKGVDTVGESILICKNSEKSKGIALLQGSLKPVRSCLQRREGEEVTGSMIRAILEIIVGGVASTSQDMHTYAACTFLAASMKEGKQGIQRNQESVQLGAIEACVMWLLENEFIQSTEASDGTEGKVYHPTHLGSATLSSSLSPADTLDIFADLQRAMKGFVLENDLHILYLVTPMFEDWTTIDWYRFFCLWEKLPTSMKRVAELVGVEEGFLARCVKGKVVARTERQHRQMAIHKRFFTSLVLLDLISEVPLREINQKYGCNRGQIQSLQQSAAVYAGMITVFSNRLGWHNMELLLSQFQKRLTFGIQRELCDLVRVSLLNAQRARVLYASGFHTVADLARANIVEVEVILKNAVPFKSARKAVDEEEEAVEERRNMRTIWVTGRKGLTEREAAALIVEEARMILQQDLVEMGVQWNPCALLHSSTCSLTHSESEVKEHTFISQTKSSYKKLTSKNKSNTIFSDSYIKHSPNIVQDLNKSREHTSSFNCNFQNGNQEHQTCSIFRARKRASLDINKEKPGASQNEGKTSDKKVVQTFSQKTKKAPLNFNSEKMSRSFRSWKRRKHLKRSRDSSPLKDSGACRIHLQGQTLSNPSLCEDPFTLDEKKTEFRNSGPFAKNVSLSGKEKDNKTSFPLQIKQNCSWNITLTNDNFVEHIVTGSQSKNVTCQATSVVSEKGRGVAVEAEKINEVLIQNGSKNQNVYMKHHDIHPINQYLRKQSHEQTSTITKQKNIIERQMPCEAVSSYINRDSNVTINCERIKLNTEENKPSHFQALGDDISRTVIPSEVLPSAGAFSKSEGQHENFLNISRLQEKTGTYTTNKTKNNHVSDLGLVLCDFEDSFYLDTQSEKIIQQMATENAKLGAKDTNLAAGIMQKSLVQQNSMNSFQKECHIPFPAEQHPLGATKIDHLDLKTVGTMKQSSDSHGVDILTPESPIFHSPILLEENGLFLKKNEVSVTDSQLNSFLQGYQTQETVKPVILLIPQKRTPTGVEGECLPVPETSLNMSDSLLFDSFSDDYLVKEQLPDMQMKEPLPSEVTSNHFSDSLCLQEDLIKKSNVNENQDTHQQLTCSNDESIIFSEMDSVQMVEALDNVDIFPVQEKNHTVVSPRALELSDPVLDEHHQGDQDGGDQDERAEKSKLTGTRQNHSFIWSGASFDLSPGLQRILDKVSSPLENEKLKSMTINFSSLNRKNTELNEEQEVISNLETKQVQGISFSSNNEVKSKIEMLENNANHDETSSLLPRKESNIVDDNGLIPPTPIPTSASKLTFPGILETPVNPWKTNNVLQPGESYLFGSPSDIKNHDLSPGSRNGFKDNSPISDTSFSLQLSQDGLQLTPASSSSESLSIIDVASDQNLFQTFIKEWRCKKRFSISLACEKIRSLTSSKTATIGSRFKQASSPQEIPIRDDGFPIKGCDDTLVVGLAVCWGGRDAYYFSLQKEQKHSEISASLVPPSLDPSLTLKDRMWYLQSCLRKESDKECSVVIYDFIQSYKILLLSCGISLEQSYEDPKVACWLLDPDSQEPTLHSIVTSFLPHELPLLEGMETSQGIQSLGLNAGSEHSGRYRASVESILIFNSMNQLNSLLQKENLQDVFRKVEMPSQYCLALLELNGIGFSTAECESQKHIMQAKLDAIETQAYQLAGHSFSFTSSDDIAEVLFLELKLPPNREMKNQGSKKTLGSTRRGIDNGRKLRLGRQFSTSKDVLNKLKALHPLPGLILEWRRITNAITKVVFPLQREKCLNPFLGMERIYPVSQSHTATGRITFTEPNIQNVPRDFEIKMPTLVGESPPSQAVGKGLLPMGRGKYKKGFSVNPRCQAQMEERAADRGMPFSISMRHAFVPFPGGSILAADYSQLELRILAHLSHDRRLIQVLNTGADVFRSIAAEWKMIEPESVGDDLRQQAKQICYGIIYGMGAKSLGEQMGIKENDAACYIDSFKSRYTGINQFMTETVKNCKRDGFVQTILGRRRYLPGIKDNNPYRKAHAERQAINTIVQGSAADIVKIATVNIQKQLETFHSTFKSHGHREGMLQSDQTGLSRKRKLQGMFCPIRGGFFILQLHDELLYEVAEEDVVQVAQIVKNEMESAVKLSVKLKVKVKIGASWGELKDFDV"}
{"Structure (SMILES)": "NC(=O)c1ncn([C@@H]2O[C@H](CO)[C@@H](O)[C@H]2O)c1O", "remaining activity": "99%"}
{"Structure (SMILES)": "CCN[C@H]1CN(CCCOC)S(=O)(=O)c2sc(S(N)(=O)=O)cc21", "remaining activity": "101%"}
{"Structure (SMILES)": "Cc1cccc(-c2[nH]c(C(C)(C)C)nc2-c2ccc3c(c2)OCO3)n1", "remaining activity": "102%"}
{"Structure (SMILES)": "NCCC(=O)NCCc1c[nH]cn1", "remaining activity": "98.3%"}
{"Structure (SMILES)": "NC[C@@H](O)c1ccc(O)c(O)c1", "remaining activity": "101%"}
{"Structure (SMILES)": "COc1ccc(S(=O)(=O)Nc2cccnc2Nc2ccc(O)cc2)cc1", "remaining activity": "98.5%"}
{"Structure (SMILES)": "COc1cc(C)nc(-n2nc(C)cc2OC)n1", "remaining activity": "93.4%"}
{"Structure (SMILES)": "O=C(N/N=C/c1ccc([N+](=O)[O-])o1)c1ccc(O)cc1", "remaining activity": "92.2% and 100%"}
{"Structure (SMILES)": "CC(C)[C@H]1C(=O)N[C@@H](CCCNC(=N)N)C(=O)NCC(=O)N[C@@H](CC(=O)O)C(=O)N[C@H](Cc2ccccc2)C(=O)N1C", "remaining activity": "99.7%"}
{"data": "Set 2", "Structure (SMILES)": "Cn1cc(/C=C2\\C(=O)Nc3ccc(S(N)(=O)=O)cc32)c2ccccc21", "observed": "enzyme activity", "action": "inhibitor", "concentration": "0.5 µM", "reference": "control"}
{"target": "CSNK2A1 (Homo sapiens, UniProt P68400)", "remaining activity": "84.7%"}
{"target": "LRRK2 (Homo sapiens, UniProt Q5S007)", "remaining activity": "9.76%"}
{"target": "CSNK1A1 (Homo sapiens, UniProt P48729)", "remaining activity": "105%"}
{"target": "EPHA5 (Homo sapiens, UniProt P54756)", "remaining activity": "69.3%"}
{"target": "BTK (Homo sapiens, UniProt Q06187)", "remaining activity": "30.4%"}
{"target": "Cyclin-dependent kinase 9, with cyclin T1 (CDK9, Homo sapiens, UniProt P50750)", "remaining activity": "65%"}
{"target": "NEK4 (Homo sapiens, UniProt P51957)", "remaining activity": "81%"}
{"target": "MAPK13 (Homo sapiens, UniProt O15264)", "remaining activity": "105%"}
{"target": "MKNK2 (Homo sapiens, UniProt Q9HBH9)", "remaining activity": "71.1%"}
{"target": "MAPK12 (Homo sapiens, UniProt P53778)", "remaining activity": "101%"}
{"target": "PLK2 (Homo sapiens, UniProt Q9NYY3)", "remaining activity": "104%"}
{"target": "LYN (Homo sapiens, UniProt P07948)", "remaining activity": "43.8%"}
{"target": "STK38 (Homo sapiens, UniProt Q15208)", "remaining activity": "53.1%"}
{"target": "PRKCI (Homo sapiens, UniProt P41743)", "remaining activity": "99.6%"}
{"target": "MAP2K6 (Homo sapiens, UniProt P52564)", "remaining activity": "116%"}
{"target": "PRKG1 (Homo sapiens, UniProt Q13976)", "remaining activity": "81.1%"}
{"target": "PRKCD (Homo sapiens, UniProt Q05655)", "remaining activity": "91.3%"}
{"target": "MAP3K10 (Homo sapiens, UniProt Q02779)", "remaining activity": "95.9%"}
{"target": "KIT (Homo sapiens, UniProt P10721)", "remaining activity": "68.2%"}
{"target": "CHEK1 (Homo sapiens, UniProt O14757)", "remaining activity": "19.5%"}
{"target": "WNK2 (Homo sapiens, UniProt Q9Y3S1)", "remaining activity": "97.7%"}
{"target": "AKT3 (Homo sapiens, UniProt Q9Y243)", "remaining activity": "97.4%"}
{"target": "MAP4K2 (Homo sapiens, UniProt Q12851)", "remaining activity": "17.4%"}
{"target": "IRAK4 (Homo sapiens, UniProt Q9NWZ3)", "remaining activity": "2.98%"}
{"data": "Set 3", "Structure (SMILES)": "CNCc1ccccc1-c1csc([C@@H](C)Nc2nc(C)nc3cc(OC)c(OC)cc23)c1", "observed": "cell-free assay", "technique": "competition with immobilised ligand", "concentration": "1 µM"}
{"target": "EGFR (Homo sapiens, UniProt P00533, L861Q)", "remaining binding [%]": 97}
{"target": "MYLK3 (Homo sapiens, UniProt Q32MK0)", "remaining binding [%]": 96}
{"target": "CAMK2B (Homo sapiens, UniProt Q13554)", "remaining binding [%]": 92}
{"target": "CDK18 (Homo sapiens, UniProt Q07002)", "remaining binding [%]": 100}
{"target": "Tyrosine-protein kinase ABL1, non-phosphorylated (ABL1, Homo sapiens, UniProt P00519, T315I)", "remaining binding [%]": 100}
{"target": "FLT3 (Homo sapiens, UniProt P36888, D835V)", "remaining binding [%]": 70}
{"target": "MAP2K5 (Homo sapiens, UniProt Q13163)", "remaining binding [%]": 91}
{"target": "SNRK (Homo sapiens, UniProt Q9NRH2)", "remaining binding [%]": 78}
{"target": "EGFR (Homo sapiens, UniProt P00533, del746-750)", "remaining binding [%]": 100}
{"target": "DDR2 (Homo sapiens, UniProt Q16832)", "remaining binding [%]": 92}
{"target": "Ribosomal protein S6 kinase alpha-3, N-terminal kinase domain (RPS6KA3, Homo sapiens, UniProt P51812)", "remaining binding [%]": 80}
{"target": "CDK7 (Homo sapiens, UniProt P50613)", "remaining binding [%]": 63}
{"target": "PLK4 (Homo sapiens, UniProt O00444)", "remaining binding [%]": 74}
{"target": "Tyrosine-protein kinase ABL1, phosphorylated (ABL1, Homo sapiens, UniProt P00519, H396P)", "remaining binding [%]": 93}
{"target": "Ribosomal protein S6 kinase alpha-6, N-terminal kinase domain (RPS6KA6, Homo sapiens, UniProt Q9UK32)", "remaining binding [%]": 85}
{"target": "EGFR (Homo sapiens, UniProt P00533, A750P/del747-749)", "remaining binding [%]": 82}
{"data": "Set 4", "SMILES": "CC(=O)N[C@@H](Cc1c[nH]c2ccccc12)C(=O)N[C@@H](CCC(=O)C=[N+]=[N-])C(=O)OC(C)C", "host": "C57BL/6 CES1-/- mice, EL4 tumour", "route": "subcutaneous", "dose": "0.3 mg/kg/day DON equivalent", "time": "5 days"}
{"test": "LC-MS/MS metabolomics, refers to: mannonate", "system": "EL4 tumour", "how to read": "higher = more metabolite", "metabolite peak intensity": "5e+06 a.u. and 3.48e+06 a.u. and 4.92e+06 a.u. and 4.79e+06 a.u. and 4.09e+06 a.u. and 5.08e+06 a.u."}
{"test": "UPLC-MS/MS, refers to: isoleucine", "system": "EL4, tumour", "conditions": "normalised to tissue mass", "how to read": "higher = more metabolite", "metabolite peak intensity": "1.65e+09 a.u. and 1.83e+09 a.u. and 1.52e+09 a.u. and 1.47e+09 a.u. and 1.68e+09 a.u. and 1.48e+09 a.u."}
{"test": "LC-MS/MS metabolomics, refers to: 2-methylcitrate/homocitrate", "system": "EL4 tumour", "conditions": "normalised to tissue mass", "how to read": "higher = more metabolite", "metabolite peak intensity": "136000 a.u. and 97600 a.u. and 108000 a.u. and 143000 a.u. and 144000 a.u."}
{"test": "UPLC-MS/MS, refers to: N-acetyl-1-methylhistidine", "system": "EL4 tumour", "metabolite peak intensity": "109000 a.u. and 93600 a.u. and 141000 a.u. and 52500 a.u."}
{"test": "UPLC-MS/MS metabolomics, refers to: N-alpha-acetylornithine", "system": "EL4 tumour", "conditions": "normalised to tissue mass", "how to read": "higher = more metabolite", "metabolite peak intensity": "345000 a.u. and 343000 a.u. and 226000 a.u. and 315000 a.u. and 224000 a.u."}
{"test": "LC-MS/MS metabolomics, refers to: 3'-CMP", "system": "EL4 tumour", "conditions": "normalised to tissue mass", "how to read": "higher = more metabolite", "metabolite peak intensity": "3.29e+06 a.u. and 5.22e+06 a.u. and 4.7e+06 a.u. and 2.6e+06 a.u. and 4.71e+06 a.u. and 4.25e+06 a.u."}
{"test": "LC-MS/MS metabolomics, refers to: methionine", "system": "EL4 tumour", "how to read": "higher = more metabolite", "metabolite peak intensity": "1.96e+09 a.u. and 1.58e+09 a.u. and 2.09e+09 a.u. and 1.83e+09 a.u. and 2.1e+09 a.u. and 1.52e+09 a.u."}
{"test": "LC-MS/MS metabolomics, refers to: ornithine", "system": "EL4 tumour", "how to read": "higher = more metabolite", "metabolite peak intensity": "4.88e+08 a.u. and 6.91e+08 a.u. and 7.7e+08 a.u. and 8.61e+08 a.u. and 8.63e+08 a.u. and 6.85e+08 a.u."}
{"test": "LC-MS/MS metabolomics, refers to: 2'-deoxyguanosine", "system": "EL4 tumour", "conditions": "normalised to tissue mass", "how to read": "higher = more metabolite", "metabolite peak intensity": "158000 a.u. and 110000 a.u. and 104000 a.u. and 137000 a.u. and 139000 a.u. and 180000 a.u."}
{"test": "UPLC-MS/MS, refers to: N-acetylglucosamine 1-phosphate", "system": "EL4 tumour", "metabolite peak intensity": "660000 a.u. and 808000 a.u. and 705000 a.u. and 821000 a.u. and 425000 a.u. and 1.12e+06 a.u."}
{"test": "UPLC-MS/MS metabolomics, refers to: gamma/beta-tocopherol", "system": "EL4 tumour", "conditions": "normalised to tissue mass", "metabolite peak intensity": "2.62e+06 a.u. and 2.2e+06 a.u. and 2.04e+06 a.u. and 3.4e+06 a.u. and 1.89e+06 a.u. and 2.65e+06 a.u."}
{"test": "LC-MS/MS metabolomics, refers to: 3-methylhistidine", "system": "EL4 tumour", "conditions": "normalised to tissue mass", "how to read": "higher = more metabolite", "metabolite peak intensity": "72000 a.u. and 92900 a.u. and 57400 a.u. and 105000 a.u. and 80200 a.u. and 60800 a.u."}
{"note": "Excerpt of the above (set 3):"}
{"target": "Ribosomal protein S6 kinase alpha-6, N-terminal kinase domain (RPS6KA6, Homo sapiens, UniProt Q9UK32)", "remaining binding [%]": 85}
{"target": "PLK4 (Homo sapiens, UniProt O00444)", "remaining binding [%]": 74}
{"target": "CAMK2B (Homo sapiens, UniProt Q13554)", "remaining binding [%]": 92}
{"target": "FLT3 (Homo sapiens, UniProt P36888, D835V)", "remaining binding [%]": 70}
{"target": "EGFR (Homo sapiens, UniProt P00533, del746-750)", "remaining binding [%]": 100}
{"target": "DDR2 (Homo sapiens, UniProt Q16832)", "remaining binding [%]": 92}
{"target": "EGFR (Homo sapiens, UniProt P00533, A750P/del747-749)", "remaining binding [%]": 82}
{"target": "Tyrosine-protein kinase ABL1, non-phosphorylated (ABL1, Homo sapiens, UniProt P00519, T315I)", "remaining binding [%]": 100}
{"target": "MAP2K5 (Homo sapiens, UniProt Q13163)", "remaining binding [%]": 91}
